# Measured values collected from several papers.
# Each line is one published result; not all experiments were run side by side. “And” joins repeats or separate records; there may be more than shown.
Structure (SMILES),tested on,assay,system,conditions,how to read,quantity,result
COc1cc2c(cc1OC)-c1c(oc3c4c(cc(O)c3c1=O)OC(C)(C)C=C4)CO2,K562,"cell growth or viability, MTT",,100 µg/mL,,viability,87.9%
"COC1C=CC(OC(=O)C=Cc2ccccc2)C(O)C1(O)COC(=O)c1ccccc1 (single isomer, unassigned; (-))",K562,"cell growth or viability, MTT",,100 µg/mL,,viability,70.9%
CN1CCCNC(=O)c2cccc(c2)C(=O)NCCCN(C)CCCNc2cccc3c2C(=O)c2cccc(c2C3=O)NCCC1,Ca9-22,"cell growth or viability, CCK-8",,"50 nM, 48 h",,viability,82.9%
Cc1ncsc1-c1ccc(C(C)NC(=O)C2CC(O)CN2C(=O)C(NC(=O)CCCCCCCCCCN2CCCC(Nc3ncc(Cl)c(Nc4ccccc4S(=O)(=O)C(C)C)n3)C2)C(C)(C)C)cc1 (centres unmarked),22Rv1,"RNA-seq, measured: ZSWIM3 mRNA",,concentration not given,relative to: DMSO,log2 fold change,-2.55
COc1ccc(Cn2cc(CCO[C@@H]3O[C@H]4[C@H](OC[C@H]4O)[C@H]3O)nn2)cc1,CHO-K1,"cytotoxicity, CellTiter-Glo",,"up to 30 µM, 72 h",,viability,not toxic
COC1CN([C@H]2CC[C@H]([C@@]3(C)Oc4c(Cl)cc(C(=O)NCc5c(SC)cc(C)[nH]c5=O)c(C)c4O3)CC2)C1,,"RNA-seq, measured: SMARCD3","human, whole blood","dose not given, 24 h",relative to: pretreatment baseline,log2 fold change,1.17
C=Cc1c(C)c2cc3nc(c(CC(=O)OCCOCCOCCOC)c4[nH]c(cc5nc(cc1[nH]2)C(C)=C5CC)c(C)c4C(=O)OCCOCCOCCOC)[C@@H](CCC(=O)OCCOCCOCCOC)[C@@H]3C,OVCAR-5,MTT,,"0.1 µM, 4 h, dark",,viability,~20%
O=C(OC[C@@]1(O)C(=O)C=C[C@H]2[C@@H]1[C@H]1C=C[C@@H]2C(=O)[C@]1(O)COC(=O)c1ccccc1)c1ccccc1,K562,"cell growth or viability, MTT",,50 µg/mL,,viability,15.4%
CCc1c(-c2ccc3[nH]ncc3c2)cnc(N)c1-c1ccc(O)cc1,CHP-212 resistant sublines (heterozygous USP7 V517F),cell viability,,0.3906 µM,,viability,106% and 104%
CCC1C=CC2CCN(C(=O)C3CCC4C=CC5(CCCN5C(=O)C(Cc5ccccc5Cl)NC(C)=O)C(=O)N43)C2C(=O)N1CC(=O)OC (centres unmarked),B16-F1,,,"180 µM, 24 h, Ena/VASP knockout, and wild type",,viability,not toxic
COc1cc(N2CCN(C(=O)CN)CC2)ccc1Nc1ncc(Cl)c(Nc2ccccc2P(C)(C)=O)n1,NCI-H3122,"cell growth or viability, CCK-8",,"0.25 µM, 48 h",,viability,26%
CCOC(=O)C1CC(C)C2C=CC3CCN(C(=O)C4CCC5C=CC6(CCCN6C(=O)C(Cc6ccccc6Cl)NC(C)=O)C(=O)N54)C3C(=O)N12 (centres unmarked),B16-F1,,,"180 µM, 24 h, Ena/VASP knockout, and wild type",,viability,not toxic
Cc1nc(Nc2ncc(C(=O)Nc3c(C)cccc3Cl)s2)cc(N2CCN(C(=O)CCOCCNC(=O)CN)CC2)n1,K562,"cell growth or viability, CCK-8",,100 pM,,viability,99% and 98%
O=CCNCCOn1c(=O)n(OCCNCCO)c(=O)n(OCCNCCOn2c(=O)n(OCCNCCO)c(=O)n(OCCNCCO)c2=O)c1=O,HUVEC,"cell growth or viability, MTT",,"100 µg/mL, 24 h",,viability,53.7%
"O=C(C=Cc1ccccc1)OC1C=CC(O)C(O)(COC(=O)c2ccccc2)C1O (single isomer, unassigned; (-))",K562,"cell growth or viability, MTT",,100 µg/mL,,viability,72.6%
O=C(O)c1c(O)cc(O[C@@H]2O[C@H](CO)[C@@H](O)[C@H](O)[C@H]2O)cc1/C=C/c1ccccc1,RPE,"cell growth or viability, crystal violet",,"50 µM, 48 h",,viability,> 50%
C=C(C)[C@H]1Cc2c(cc(O)c3c2O[C@@H]2COc4cc(OC)c(OC)cc4[C@@H]2C3=O)O1,K562,"cell growth or viability, MTT",,100 µg/mL,,viability,66.9%

# Some of these lines once more:
Structure (SMILES),tested on,assay,system,conditions,how to read,quantity,result
CN1CCCNC(=O)c2cccc(c2)C(=O)NCCCN(C)CCCNc2cccc3c2C(=O)c2cccc(c2C3=O)NCCC1,Ca9-22,"cell growth or viability, CCK-8",,"50 nM, 48 h",,viability,82.9%
Cc1ncsc1-c1ccc(C(C)NC(=O)C2CC(O)CN2C(=O)C(NC(=O)CCCCCCCCCCN2CCCC(Nc3ncc(Cl)c(Nc4ccccc4S(=O)(=O)C(C)C)n3)C2)C(C)(C)C)cc1 (centres unmarked),22Rv1,"RNA-seq, measured: ZSWIM3 mRNA",,concentration not given,relative to: DMSO,log2 fold change,-2.55
